# Measurements of several laboratories.
# A part holds a random share of what one study measured.

# Block 1
# Target: RING finger protein unkempt homolog, zinc fingers 1-6, GST-SBP tag (UNK, Homo sapiens, UniProt Q9C0B0, residues 30-357)
# UniProt Q9C0B0, sequence (30-357, looked up): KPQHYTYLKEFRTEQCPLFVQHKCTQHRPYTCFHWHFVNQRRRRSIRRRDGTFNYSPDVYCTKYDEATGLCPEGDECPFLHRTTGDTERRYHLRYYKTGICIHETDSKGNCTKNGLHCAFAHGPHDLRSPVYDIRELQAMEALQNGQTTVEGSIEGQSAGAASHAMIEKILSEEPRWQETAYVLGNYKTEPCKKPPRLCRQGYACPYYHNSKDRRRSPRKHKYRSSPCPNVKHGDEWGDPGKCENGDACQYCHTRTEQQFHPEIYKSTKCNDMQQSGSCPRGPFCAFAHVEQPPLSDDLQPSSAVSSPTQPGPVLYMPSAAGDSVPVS
# Method: RNA Bind-n-Seq
# Form: RNA
# Medium: in vitro
# Concentration: not given
# Notes: RNA with constant flanks, human and mouse sites, ends assumed
# Relative to: input RNA pool
# Reading: higher = stronger binding
Strand,bound/input enrichment [ratio]
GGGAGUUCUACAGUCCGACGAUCAAAGAAAAACCACAGUCUAUUCAAACUUGUAUAGAGGUAUUUGUUGCAUUAACUAGUUUUGAGCCAAUUCCUCAUAAAUUUCUUAUUUCACAAGCCAGGAACCUCAAUGAAGUCAAACACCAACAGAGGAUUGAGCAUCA,0.325
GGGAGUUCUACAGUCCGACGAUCCAGCACUGCCUCUCUGUUUGGGGAGAUGUAAUGCUGGAAGAUCUUAAGGACUACAUACAUUCUAGAGAUGACAGUGUUGUUCAAAGACAGCCUAGUAAGUAAUUGGUAGAAAUGCCCUUACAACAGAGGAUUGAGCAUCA,0.224
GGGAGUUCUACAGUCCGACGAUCUUAGUAGAUAGUAUGGGAAGAACGGAAGCUCCUGUUGUCUCUUACUUUUGUUCUCUAACCUGUUUUGUAAAGUCCUCUGAUAUGUUGAACUAAUUAAUGUAAUAUCAGAAAGGUUUCUAGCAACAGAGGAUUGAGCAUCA,0.522
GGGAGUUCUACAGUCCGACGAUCUCCAAGAGGCCUUCUAUGUGAAAGCCCGAGACAGAAAACUUCUUGCUAUCUACCUCCACCAUGAUGAAAGUGUACUAACCAACGUGUUCUGCUCACAAAUGCUUUGUGCUGAAUCCAUUGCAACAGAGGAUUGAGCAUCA,0.207
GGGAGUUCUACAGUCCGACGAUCCCAUGAAAAAGGAAGAGGACAAUUCAUAGAGAAUAAAAUCUAUGCAAACAACUUUGCAGGUGUAUGGAUUACCUCAAAUAGUGACCCAACAAUAAGGGGAAAUUCUAUAUUUAAUGGAAACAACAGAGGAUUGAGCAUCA,0.463

# Block 2
# Target: Histone acetyltransferase KAT6A, winged helix 2, GST fusion (KAT6A, Homo sapiens, UniProt Q92794, residues 85-181)
# Method: protein binding microarray
# Form: double-stranded DNA, one strand shown
# Medium: in vitro
# Concentration: not given
# Notes: 8-mer, flanks averaged, mean of 2 arrays, mostly near background
# Relative to: not given
# Reading: higher = stronger binding
# Target sequence (chain): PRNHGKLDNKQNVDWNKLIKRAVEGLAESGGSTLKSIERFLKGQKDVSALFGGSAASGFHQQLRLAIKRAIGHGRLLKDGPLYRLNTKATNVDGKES
Strand,E-score
ATTACAAT,-0.0668
GGATAGAA,0.122
AACTGGAC,-0.094

# Block 3
# Target: Interferon regulatory factor 7, full length, phosphomimetic (IRF7, Homo sapiens, UniProt Q92985, residues 1-503, S101K/S471D/S472D/S475D/S476D/S477D/S483D/S484D/S487D)
# UniProt Q92985, sequence (whole entry, unmodified, looked up): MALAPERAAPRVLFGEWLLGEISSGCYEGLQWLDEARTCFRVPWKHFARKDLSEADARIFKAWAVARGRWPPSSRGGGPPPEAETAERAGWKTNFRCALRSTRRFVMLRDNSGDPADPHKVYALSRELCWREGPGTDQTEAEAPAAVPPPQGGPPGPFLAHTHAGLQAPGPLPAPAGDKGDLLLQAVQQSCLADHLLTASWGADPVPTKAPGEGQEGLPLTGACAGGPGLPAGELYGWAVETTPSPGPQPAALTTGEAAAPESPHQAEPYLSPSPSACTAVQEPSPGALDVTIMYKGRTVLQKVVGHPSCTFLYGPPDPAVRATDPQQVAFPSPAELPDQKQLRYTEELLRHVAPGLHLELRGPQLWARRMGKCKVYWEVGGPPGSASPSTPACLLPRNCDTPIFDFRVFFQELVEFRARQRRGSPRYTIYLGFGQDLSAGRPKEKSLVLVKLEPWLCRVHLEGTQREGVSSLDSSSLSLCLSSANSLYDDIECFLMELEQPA
# Method: protein-binding microarray
# Form: double-stranded DNA, one strand shown
# Medium: in vitro
# Concentration: 250 nM
# Notes: 60-bp whole probe
# Together with: salmon DNA 0.4 mg/ml
# Relative to: random background probes
# Reading: higher = stronger binding
# Constant ends, left off below: GCCTAGCAC … GTCTTGATTCGCTTGACGCTGCTG
Strand,log fluorescence
CTAGGTATCGGTTTCGGTTAGTGCTAG,10.8 z-score
GACGGTTTCCGGTATCGGGACGTGCTA,2.96 z-score
TTAGGACAGGACTATCGGTTAGTGCTA,-0.219 z-score
GACGGTTACGGTCTCGGGACGTGCTAG,0.0811 z-score
TTCGGTTCCCTTTTCCTTTAGTGCTAG,4 z-score

# Single results of other studies
Substance,target,assay,system,setting,how to read,quantity,result
"PhoQ, residues 284 288 289 292 302 303 TAVSDG","PhoP, residues 12 14 15 18 19 SGWQI (Escherichia coli, UniProt P23836)","Sort-seq, refers to: YFP reporter",E. coli,"PhoQ-PhoP variant library, together with: 10 µM Mg2+","relative to: high Mg2+ state, higher = stronger signaling",fold induction,1.33

# For quick reference, copied from above (block 3):
Strand,log fluorescence
TTAGGACAGGACTATCGGTTAGTGCTA,-0.219 z-score
